Assay results of several laboratories.
Parts stem from different laboratories: compare values within a part only. Changes are numbered by the printed parent chain.
Chain of UniProt P9WI81 (whole entry, looked up): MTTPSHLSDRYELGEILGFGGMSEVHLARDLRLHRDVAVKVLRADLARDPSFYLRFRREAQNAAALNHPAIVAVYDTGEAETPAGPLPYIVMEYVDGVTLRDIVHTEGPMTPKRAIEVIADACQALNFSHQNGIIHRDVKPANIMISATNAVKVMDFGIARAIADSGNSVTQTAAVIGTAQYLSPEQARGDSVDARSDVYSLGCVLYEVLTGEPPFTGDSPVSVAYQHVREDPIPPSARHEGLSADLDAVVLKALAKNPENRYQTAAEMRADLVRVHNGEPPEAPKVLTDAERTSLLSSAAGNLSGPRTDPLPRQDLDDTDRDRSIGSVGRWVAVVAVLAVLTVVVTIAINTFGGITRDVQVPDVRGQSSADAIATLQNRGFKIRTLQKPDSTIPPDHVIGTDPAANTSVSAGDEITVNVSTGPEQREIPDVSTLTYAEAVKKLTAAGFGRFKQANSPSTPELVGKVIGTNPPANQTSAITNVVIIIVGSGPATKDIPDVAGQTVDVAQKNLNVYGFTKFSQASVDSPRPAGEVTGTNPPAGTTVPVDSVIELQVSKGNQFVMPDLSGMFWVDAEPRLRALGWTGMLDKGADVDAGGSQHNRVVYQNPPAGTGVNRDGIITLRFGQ
Chain of UniProt O75417 (whole entry, unmodified, looked up): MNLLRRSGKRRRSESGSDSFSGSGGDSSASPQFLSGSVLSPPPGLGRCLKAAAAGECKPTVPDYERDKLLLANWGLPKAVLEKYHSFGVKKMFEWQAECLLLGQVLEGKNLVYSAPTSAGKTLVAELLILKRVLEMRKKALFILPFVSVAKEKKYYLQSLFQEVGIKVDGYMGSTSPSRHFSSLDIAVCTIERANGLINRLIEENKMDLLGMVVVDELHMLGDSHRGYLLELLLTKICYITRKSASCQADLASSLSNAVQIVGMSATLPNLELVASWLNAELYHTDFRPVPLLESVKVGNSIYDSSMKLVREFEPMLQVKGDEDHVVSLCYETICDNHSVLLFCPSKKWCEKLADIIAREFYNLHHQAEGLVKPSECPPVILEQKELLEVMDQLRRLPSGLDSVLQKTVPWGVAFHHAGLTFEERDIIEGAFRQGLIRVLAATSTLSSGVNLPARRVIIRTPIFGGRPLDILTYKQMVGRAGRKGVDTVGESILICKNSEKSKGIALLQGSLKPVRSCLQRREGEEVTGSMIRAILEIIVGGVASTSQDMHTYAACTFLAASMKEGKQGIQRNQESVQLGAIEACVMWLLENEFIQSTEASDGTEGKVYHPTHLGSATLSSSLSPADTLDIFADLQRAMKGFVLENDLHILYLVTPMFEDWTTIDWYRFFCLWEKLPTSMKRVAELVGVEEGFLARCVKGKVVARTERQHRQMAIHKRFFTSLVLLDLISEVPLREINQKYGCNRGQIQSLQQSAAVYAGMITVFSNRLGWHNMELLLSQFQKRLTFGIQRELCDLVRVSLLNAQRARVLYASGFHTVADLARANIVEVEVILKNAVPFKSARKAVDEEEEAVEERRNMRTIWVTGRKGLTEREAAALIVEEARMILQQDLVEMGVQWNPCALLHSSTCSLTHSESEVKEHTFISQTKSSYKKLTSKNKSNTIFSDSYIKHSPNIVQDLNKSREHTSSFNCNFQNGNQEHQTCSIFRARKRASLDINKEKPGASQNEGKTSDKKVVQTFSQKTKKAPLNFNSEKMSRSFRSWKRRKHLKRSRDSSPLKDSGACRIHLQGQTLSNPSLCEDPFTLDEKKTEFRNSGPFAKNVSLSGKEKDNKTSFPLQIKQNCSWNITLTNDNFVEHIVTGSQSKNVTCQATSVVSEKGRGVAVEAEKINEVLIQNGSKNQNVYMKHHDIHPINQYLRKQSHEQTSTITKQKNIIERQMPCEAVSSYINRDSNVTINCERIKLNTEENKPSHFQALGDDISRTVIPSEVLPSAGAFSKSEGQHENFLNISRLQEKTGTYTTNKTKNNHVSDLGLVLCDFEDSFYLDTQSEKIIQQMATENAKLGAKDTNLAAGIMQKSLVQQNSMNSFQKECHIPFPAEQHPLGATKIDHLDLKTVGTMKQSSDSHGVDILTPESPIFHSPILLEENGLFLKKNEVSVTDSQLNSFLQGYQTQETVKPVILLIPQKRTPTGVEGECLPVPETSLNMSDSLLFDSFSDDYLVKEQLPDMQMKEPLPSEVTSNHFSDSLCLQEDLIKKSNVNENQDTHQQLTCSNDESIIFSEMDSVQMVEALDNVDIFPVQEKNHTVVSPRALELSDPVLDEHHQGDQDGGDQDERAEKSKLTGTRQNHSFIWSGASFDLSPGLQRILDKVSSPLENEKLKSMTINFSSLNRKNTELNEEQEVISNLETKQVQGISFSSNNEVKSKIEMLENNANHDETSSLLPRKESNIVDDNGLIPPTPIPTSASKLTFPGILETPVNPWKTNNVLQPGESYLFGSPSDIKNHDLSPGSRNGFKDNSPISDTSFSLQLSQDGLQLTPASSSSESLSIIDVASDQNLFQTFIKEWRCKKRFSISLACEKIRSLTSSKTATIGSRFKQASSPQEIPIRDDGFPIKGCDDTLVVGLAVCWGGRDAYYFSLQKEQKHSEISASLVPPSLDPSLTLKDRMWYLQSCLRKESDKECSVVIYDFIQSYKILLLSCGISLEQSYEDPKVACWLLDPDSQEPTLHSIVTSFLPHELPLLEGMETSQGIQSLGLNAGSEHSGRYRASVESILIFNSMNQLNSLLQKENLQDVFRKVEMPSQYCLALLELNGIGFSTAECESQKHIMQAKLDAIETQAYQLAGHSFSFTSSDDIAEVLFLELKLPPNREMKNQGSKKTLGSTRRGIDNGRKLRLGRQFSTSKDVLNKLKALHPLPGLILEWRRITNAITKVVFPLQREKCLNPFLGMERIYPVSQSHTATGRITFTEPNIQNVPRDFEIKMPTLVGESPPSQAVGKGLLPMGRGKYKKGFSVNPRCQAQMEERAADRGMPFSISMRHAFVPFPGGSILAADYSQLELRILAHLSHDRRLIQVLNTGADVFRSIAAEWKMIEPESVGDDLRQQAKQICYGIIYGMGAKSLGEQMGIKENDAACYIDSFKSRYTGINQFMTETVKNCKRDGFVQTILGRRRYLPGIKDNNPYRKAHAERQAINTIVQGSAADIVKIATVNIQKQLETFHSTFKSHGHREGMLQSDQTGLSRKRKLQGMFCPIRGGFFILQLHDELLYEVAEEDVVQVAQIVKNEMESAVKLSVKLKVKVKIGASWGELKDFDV
Chain of UniProt P42684 (whole entry, looked up): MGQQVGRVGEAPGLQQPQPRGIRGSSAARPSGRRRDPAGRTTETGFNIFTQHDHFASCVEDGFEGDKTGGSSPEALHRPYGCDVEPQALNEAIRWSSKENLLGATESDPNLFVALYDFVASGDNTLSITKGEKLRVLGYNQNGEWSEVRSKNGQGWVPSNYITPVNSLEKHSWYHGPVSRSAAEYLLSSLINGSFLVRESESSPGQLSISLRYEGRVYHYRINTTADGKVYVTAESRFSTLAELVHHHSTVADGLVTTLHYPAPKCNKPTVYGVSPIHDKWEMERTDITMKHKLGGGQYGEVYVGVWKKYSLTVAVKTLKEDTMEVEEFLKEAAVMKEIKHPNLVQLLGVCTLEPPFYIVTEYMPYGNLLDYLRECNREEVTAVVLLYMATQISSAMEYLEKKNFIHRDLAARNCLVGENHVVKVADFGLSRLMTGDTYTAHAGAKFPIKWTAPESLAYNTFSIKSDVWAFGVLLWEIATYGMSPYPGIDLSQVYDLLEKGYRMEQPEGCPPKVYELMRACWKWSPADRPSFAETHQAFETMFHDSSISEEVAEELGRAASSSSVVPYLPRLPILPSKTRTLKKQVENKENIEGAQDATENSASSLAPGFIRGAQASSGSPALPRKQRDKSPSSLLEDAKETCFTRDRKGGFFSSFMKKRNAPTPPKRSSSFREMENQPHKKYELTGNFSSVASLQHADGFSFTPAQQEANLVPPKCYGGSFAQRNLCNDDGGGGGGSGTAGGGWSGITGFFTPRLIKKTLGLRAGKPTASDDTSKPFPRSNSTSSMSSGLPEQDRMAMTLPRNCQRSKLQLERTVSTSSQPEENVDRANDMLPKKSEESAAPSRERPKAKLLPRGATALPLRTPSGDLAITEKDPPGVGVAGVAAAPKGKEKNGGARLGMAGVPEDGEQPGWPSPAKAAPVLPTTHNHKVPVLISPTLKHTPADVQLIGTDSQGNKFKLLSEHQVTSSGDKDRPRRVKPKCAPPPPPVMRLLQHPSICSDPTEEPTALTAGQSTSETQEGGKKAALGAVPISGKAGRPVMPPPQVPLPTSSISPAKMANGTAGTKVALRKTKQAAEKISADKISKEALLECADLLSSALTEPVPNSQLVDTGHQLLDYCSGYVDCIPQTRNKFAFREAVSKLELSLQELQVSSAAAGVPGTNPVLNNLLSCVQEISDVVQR

Study 1 — target: CCNB3, cyclin fold, Cln2 fusion (human); technique: yeast growth competition, sequencing; medium: yeast; notes: strong parent motif; relative to: not given; reading: higher = stronger binding
Starting sequence: viral docking peptide; YKVKRRLVFGADD; partner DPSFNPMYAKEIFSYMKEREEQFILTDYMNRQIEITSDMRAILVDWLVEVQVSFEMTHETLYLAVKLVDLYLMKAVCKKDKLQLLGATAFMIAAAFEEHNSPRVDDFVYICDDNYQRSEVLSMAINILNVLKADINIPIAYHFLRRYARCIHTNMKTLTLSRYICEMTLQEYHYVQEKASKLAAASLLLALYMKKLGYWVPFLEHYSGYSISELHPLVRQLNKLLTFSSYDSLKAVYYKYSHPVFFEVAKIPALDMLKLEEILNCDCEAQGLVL
For `YKVFRRLVFGADD [K4F]`, “normalised enrichment score” read 0.322.
`YKVKRRLVFGTDD [A11T]` — result for “normalised enrichment score”: 2.37.
`YKVKRRLVFGASD [D12S]` — result for “normalised enrichment score”: 1.66.
`YKVKRRLGFGADD [V8G]` — result for “normalised enrichment score”: 0.697.
`YKVKRRLQFGADD [V8Q]`: “normalised enrichment score” 1.58.
`YKVKRSLVFGADD [R6S]` — result for “normalised enrichment score”: 0.695.
Under “normalised enrichment score”, `YKTKRRLVFGADD [V3T]` is recorded as 0.278.
Under “normalised enrichment score”, `YKKKRRLVFGADD [V3K]` is recorded as -0.382.

Study 2 — effect on: peptide-MHC binding; molecule type: peptide; tested at: concentration not given
Target: HLA class I histocompatibility antigen, A alpha chain, allele A*25:01 (Homo sapiens, UniProt P04439)
`LPEAYQWHI`: binding “inactive”.
Under binding, `YRTLGVFRY` is recorded as “inactive”.
`KLGDITLFL`: binding “inactive”.
Under binding, `DRLASTVIY` is recorded as “inactive”.
Under binding, `YFTFDLTAL` is recorded as “inactive”.
`TEFFMSRKL`: binding “inactive”.
`NPAACSYMV` — result for binding: “inactive”.
Under binding, `KTRMEDYYL` is recorded as “inactive”.

Other studies, line by line
For CN[C@@H]1C[C@H]2O[C@@](C)([C@@H]1OC)n1c3ccccc3c3c4c(c5c6ccccc6n2c5c31)C(=O)NC4, the remaining activity was 5.25% (ABL2 (Homo sapiens, UniProt P42684); enzyme activity, inhibitor; 0.5 µM).
With C[N+]1(C)CCc2cc3c(cc2[C@H]1[C@@H]1OC(=O)c2c1ccc1c2OCO1)OCO3 the remaining activity was 113% (DNA polymerase theta, ATPase domain (POLQ, Homo sapiens, UniProt O75417); ssDNA-stimulated ATPase activity, inhibitor, ADP-Glo luminescence; 77 µM; relative to: DMSO).
For O=c1oc2ccccc2c(O)c1Cc1c(O)c2ccccc2oc1=O, the GFP-positive cells was 65.8% (HEK-293T; pseudovirus infection, FDA-approved drug library counter-screen; VSV pseudotyped with VSV-G; 10 µM, 16 h; relative to: vehicle-treated).
The remaining binding of CN1CCN(C(=O)c2ccc(NC(=O)Nc3ccc(N(C)c4ccnc(Nc5ccc(CS(C)(=O)=O)cc5)n4)cc3)cc2)CC1 is reported as 87% (pknB (Mycobacterium tuberculosis, UniProt P9WI81); binding; 1 µM).

For quick reference, copied from above (other studies, line by line):
The remaining binding of CN1CCN(C(=O)c2ccc(NC(=O)Nc3ccc(N(C)c4ccnc(Nc5ccc(CS(C)(=O)=O)cc5)n4)cc3)cc2)CC1 is reported as 87% (pknB (Mycobacterium tuberculosis, UniProt P9WI81); binding; 1 µM).
With C[N+]1(C)CCc2cc3c(cc2[C@H]1[C@@H]1OC(=O)c2c1ccc1c2OCO1)OCO3 the remaining activity was 113% (DNA polymerase theta, ATPase domain (POLQ, Homo sapiens, UniProt O75417); ssDNA-stimulated ATPase activity, inhibitor, ADP-Glo luminescence; 77 µM; relative to: DMSO).
For O=c1oc2ccccc2c(O)c1Cc1c(O)c2ccccc2oc1=O, the GFP-positive cells was 65.8% (HEK-293T; pseudovirus infection, FDA-approved drug library counter-screen; VSV pseudotyped with VSV-G; 10 µM, 16 h; relative to: vehicle-treated).
